Results from different studies.
Each line is one published result; not all experiments were run side by side. ± gives the spread as reported.
Cell line: HeLa

The IC50 of `C[C@@H]1CC[C@@H]([C@](C)(O)CNCc2ccc(F)cc2)[C@H](OCc2ccccc2)C1` is reported as 24300 nM (cell growth, inhibitor, MTT; 72 h).
`COc1cccc(Nc2nc(Cl)nc3nc[nH]c23)c1` has a GFP/RFP ratio of 0.77 (splicing reporter, measured: GLA; 10 µM, 18 h).
With `COc1cccc(CNC[C@@](C)(O)[C@@H]2CC[C@@H](C)C[C@H]2OCc2ccccc2)c1` the IC50 was 6290 nM (cell growth, inhibitor, MTT; 72 h).
For `CCCCCCCC/C=C\CCCCCCCC(=O)O`, “mitochondrial length decrease” read 43% (200 µM, 20 h, BSA complex).
The EC50 of `CC[C@H](C)[C@@H]1NC(=O)[C@H](Cc2ccc(O)cc2)NC(=O)[C@H](CC(C)C)NC(=O)[C@@H]2CCCN2C(=O)[C@H](NC(=O)[C@@H](CCCNC(=N)N)NC(=O)[C@@H](CCCNC(=N)N)NC(=O)[C@H](CCCCN=[N+]=[N-])NC(C)=O)CSCSC[C@@H](C(=O)N[C@H](CCCNC(=N)N)C(=O)N[C@H](CCCNC(=N)N)C(N)=O)NC(=O)[C@H](C(C)C)NC(=O)[C@@H]2CCCN2C(=O)[C@H](CC(=O)O)NC(=O)[C@H](Cc2ccc(O)cc2)NC(=O)[C@H](CO)NC1=O` is reported as > 10000 nM (cell permeability, NanoClick; 4 h).
`COc1ccc(NC(=S)N/N=C/c2cccc3cc4ccccc4nc23)cc1`: “late apoptotic cells” 6.6% (annexin V/PI; concentration not given, 48 h, dosed at IC12.5).
`Clc1nc(NCc2ccco2)c2[nH]cnc2n1` gave a GFP/RFP ratio of 1 (GLA poison exon splicing reporter; 10 µM, 18 h).
`COc1ccc(COC[C@@](O)(CNCc2ccc(F)cc2)[C@@H]2CC[C@@H](C)C[C@H]2OCc2ccc(OC)cc2)cc1` has an IC50 of 2840 nM (cell growth, inhibitor, MTT; 72 h).
Under “G2/M phase cells”, `CC(=O)N[C@@H](CS)C(=O)O` is recorded as 14.9 ± 2% (PI flow cytometry; concentration not given, 48 h).
`C[C@@H]1CC[C@@H]([C@@](O)(CNCc2ccccc2)COCc2ccc(F)cc2)[C@H](OCc2ccc(F)cc2)C1` gave an IC50 of 2950 nM (cell growth, inhibitor, MTT; 72 h).
`COc1cccc2c1C(=O)c1c(O)c3c(c(O)c1C2=O)C[C@@](O)(C(=O)CO)C[C@@H]3O[C@H]1C[C@H](N)[C@H](O)[C@H](C)O1` gave an EC50 of 2910 nM (cell viability, MTT; 48 h).
The IC50 of `COc1ccccc1CNC[C@@](C)(O)[C@@H]1CC[C@@H](C)C[C@H]1OCc1ccccc1` is reported as 4590 nM (cell growth, inhibitor, MTT; 72 h).
With `COc1cccc2c1C(=O)c1c(O)c3c(c(O)c1C2=O)C[C@@](O)(C(=O)CO)C[C@@H]3O[C@H]1C[C@H](N)[C@H](O)[C@H](C)O1` the growth inhibition was 82.2 ± 2.08% (MTT; 100 µM, 48 h).
With `COc1cccc2c1C(=O)c1c(O)c3c(c(O)c1C2=O)C[C@@](O)(C(=O)CO)C[C@@H]3O[C@H]1C[C@H](N)[C@H](O)[C@H](C)O1` the IC50 was 0.72 ± 0.12 µg/mL (cell viability, MTT; 48 h).
For `CC(C)n1cnc2c(N(Cc3ccccc3O)Cc3ccccc3O)nc(Cl)nc21`, the GFP/RFP ratio was 0.55 (splicing reporter, measured: GLA; 10 µM, 18 h).
`C[C@@H]1CC[C@@H]([C@](C)(O)Cn2cnc3ccccc32)[C@H](OCc2ccccc2)C1` gave an IC50 of 11600 nM (cell growth, inhibitor, MTT; 72 h).
The selectivity ratio of `NCCOc1cc(C(=O)Nc2cc(OCCN3CCCC3)c3ccccc3n2)nc(C(=O)Nc2cc(OCCN3CCCC3)c3ccccc3n2)c1` is reported as 1.4 (cell viability, CellTiter-Glo; 72 h; reference: IC50 HeLa over WI-38).
For `COC(=O)COc1c(Cc2cc(C(C)(C)CC(C)(C)C)cc(-n3nc4ccccc4n3)c2OCC(=O)OC)cc(C(C)(C)CC(C)(C)C)cc1-n1nc2ccccc2n1`, the growth inhibition was 76.2 ± 3.11% (MTT; 100 µM, 48 h).
For `C#CCOc1cc(C(=O)Nc2cc(OCCCN)c3ccccc3n2)nc(C(=O)Nc2cc(OCCCN)c3ccccc3n2)c1`, the selectivity ratio was 1 (cell viability, CellTiter-Glo; 72 h; reference: IC50 HeLa over WI-38).
`Oc1ccc(Nc2nc(Cl)nc(NCc3ccco3)n2)cc1` has a GFP/RFP ratio of 0.26 (splicing reporter, measured: GLA; 10 µM, 18 h).
The EC50 of `Cc1cc(C)c(CNC(=O)c2cc(Cl)c3c(c2C)O[C@@](C)([C@H]2CC[C@H](N(C)C)CC2)O3)c(=O)[nH]1` is reported as 0.7 nM (histone methylation reduction, AlphaLISA, measured: H3K27me3; 72 h).
The GFP/RFP ratio of `CN1C[C@H](COc2nccc3c(NCc4ccco4)cc(Cl)nc23)OC1=O` is reported as 5.13 (splicing reporter, measured: GLA; 10 µM, 18 h).
`CN1CCC(NC2CCc3[nH]c4c(C(N)=O)ccc(-c5ccccc5Cl)c4c3C2)CC1` (stereo not drawn) has an IC50 of 20 nM (cell growth).
The selectivity ratio of `NCCCOc1cc(NC(=O)c2cccc(C(=O)Nc3cc(OCCCN)c4ccccc4n3)n2)nc2ccccc12` is reported as 1.1 (cell viability, CellTiter-Glo; 72 h; reference: IC50 HeLa over WI-38).
The IC50 of `C[C@@H]1CC[C@@H]([C@](O)(CNCc2ccc(F)cc2)COCc2ccc(F)cc2)[C@H](OCc2ccc(F)cc2)C1` is reported as 2880 nM (cell growth, inhibitor, MTT; 72 h).
The selectivity ratio of `NCCCOc1cc(NC(=O)c2cc(Cl)cc(C(=O)Nc3cc(OCCCN)c4ccccc4n3)n2)nc2ccccc12` is reported as 0.9 (cell viability, CellTiter-Glo; 72 h; reference: IC50 HeLa over WI-38).
`CC(C)n1cnc2c(NCc3ccccc3O)nc(Cl)nc21` gave a GFP/RFP ratio of 0.25 (splicing reporter, measured: GLA; 10 µM, 18 h).
For `COc1cc(C(=O)Nc2cc(OCCN3CCCC3)c3ccccc3n2)nc(C(=O)Nc2cc(OCCN3CCCC3)c3ccccc3n2)c1`, the selectivity ratio was 1 (cell viability, CellTiter-Glo; 72 h; reference: IC50 HeLa over WI-38).
`CN1CC[C@H](c2c(O)cc(O)c3c(=O)cc(-c4ccccc4Cl)oc23)[C@H](O)C1`: mRNA level “decreased” (RT-qPCR, measured: c-Fos, Hsp70, Mcl-1; 10 nM, overnight).
With `Clc1cc(NCc2ccco2)ncn1` the GFP/RFP ratio was 0.42 (splicing reporter, measured: GLA; 10 µM, 18 h).
The selectivity ratio of `NCCOc1cc(C(=O)Nc2cc(OCCN)c3ccccc3n2)nc(C(=O)Nc2cc(OCCN)c3ccccc3n2)c1` is reported as 4.4 (cell viability, CellTiter-Glo; 72 h; reference: IC50 HeLa over WI-38).
Under protein interaction, `O=C(NC[C@H](O)CN1CCc2ccccc2C1)c1cc(NC2COC2)ncn1` is recorded as “decreased” (co-immunoprecipitation, western blot, measured: PRPF6 with GFP-SART3; 10 µM, 3 days).
With `CN(C)CCCOc1cc(NC(=O)c2cccc(C(=O)Nc3cc(OCCCN(C)C)c4ccccc4n3)n2)nc2ccccc12` the selectivity ratio was 0.7 (cell viability, CellTiter-Glo; 72 h; reference: IC50 HeLa over WI-38).
With `C[C@@H]1CC[C@@H]([C@](O)(CNCc2ccccc2)COCc2ccccc2)[C@H](OCc2ccccc2)C1` the IC50 was 2570 nM (cell growth, inhibitor, MTT; 72 h).
For `Fc1nc(Cl)c2[nH]cnc2n1`, “mean GFP/RFP ratio” read 0.36 (GLA poison exon splicing reporter; 10 µM, 18 h).
`NCCOc1cc(NC(=O)c2cc(OCc3ccc(F)cc3)cc(C(=O)Nc3cc(OCCN)c4ccccc4n3)n2)nc2ccccc12` gave a selectivity ratio of 0.5 (cell viability, CellTiter-Glo; 72 h; reference: IC50 HeLa over WI-38).
